Published values collected from several papers.
Each numbered part is a random draw from the data of one study; scales do not carry over between parts.
Chain of UniProt Q16539 (whole entry, looked up): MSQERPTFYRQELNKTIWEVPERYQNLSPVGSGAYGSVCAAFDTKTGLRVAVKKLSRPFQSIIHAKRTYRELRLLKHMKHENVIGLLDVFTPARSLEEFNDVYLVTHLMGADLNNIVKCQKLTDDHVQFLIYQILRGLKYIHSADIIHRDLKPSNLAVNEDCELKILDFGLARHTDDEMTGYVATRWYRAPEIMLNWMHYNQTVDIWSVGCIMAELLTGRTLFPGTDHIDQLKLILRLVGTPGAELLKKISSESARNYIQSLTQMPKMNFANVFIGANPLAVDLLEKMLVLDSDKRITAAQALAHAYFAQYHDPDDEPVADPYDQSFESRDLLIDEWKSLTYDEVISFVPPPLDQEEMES
Chain of UniProt O14976 (whole entry, looked up): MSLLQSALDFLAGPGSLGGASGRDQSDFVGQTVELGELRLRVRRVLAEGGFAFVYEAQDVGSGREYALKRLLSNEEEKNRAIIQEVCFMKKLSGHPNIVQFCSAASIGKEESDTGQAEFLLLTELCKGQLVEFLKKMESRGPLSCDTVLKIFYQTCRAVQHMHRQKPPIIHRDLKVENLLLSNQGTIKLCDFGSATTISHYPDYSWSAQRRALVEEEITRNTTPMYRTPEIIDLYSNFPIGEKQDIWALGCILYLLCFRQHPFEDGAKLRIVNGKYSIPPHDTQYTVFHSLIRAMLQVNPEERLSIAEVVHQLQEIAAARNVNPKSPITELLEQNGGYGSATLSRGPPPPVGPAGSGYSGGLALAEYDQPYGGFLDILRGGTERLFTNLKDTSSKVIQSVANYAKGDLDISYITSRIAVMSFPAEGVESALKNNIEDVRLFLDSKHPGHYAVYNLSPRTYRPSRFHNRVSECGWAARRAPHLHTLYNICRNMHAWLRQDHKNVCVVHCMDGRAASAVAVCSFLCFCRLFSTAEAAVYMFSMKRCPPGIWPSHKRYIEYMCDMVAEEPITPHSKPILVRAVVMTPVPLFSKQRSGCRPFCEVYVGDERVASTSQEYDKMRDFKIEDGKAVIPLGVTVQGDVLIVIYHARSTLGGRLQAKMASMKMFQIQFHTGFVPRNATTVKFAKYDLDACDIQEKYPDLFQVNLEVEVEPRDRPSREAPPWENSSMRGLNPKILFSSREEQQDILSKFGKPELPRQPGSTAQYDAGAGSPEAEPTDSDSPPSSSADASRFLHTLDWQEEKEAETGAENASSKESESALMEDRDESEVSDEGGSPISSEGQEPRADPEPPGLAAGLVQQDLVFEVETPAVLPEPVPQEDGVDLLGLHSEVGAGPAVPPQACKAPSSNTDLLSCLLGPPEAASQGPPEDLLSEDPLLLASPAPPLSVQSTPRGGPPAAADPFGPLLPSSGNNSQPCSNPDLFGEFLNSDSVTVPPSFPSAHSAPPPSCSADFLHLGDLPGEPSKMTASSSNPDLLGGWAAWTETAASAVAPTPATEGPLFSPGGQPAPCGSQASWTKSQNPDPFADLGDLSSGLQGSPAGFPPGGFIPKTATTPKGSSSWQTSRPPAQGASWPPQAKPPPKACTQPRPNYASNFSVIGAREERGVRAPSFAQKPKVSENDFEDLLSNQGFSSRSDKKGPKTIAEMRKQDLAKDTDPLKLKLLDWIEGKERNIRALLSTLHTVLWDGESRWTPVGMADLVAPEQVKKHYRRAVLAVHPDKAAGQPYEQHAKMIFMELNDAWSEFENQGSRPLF
Chain of UniProt P07948 (whole entry, looked up): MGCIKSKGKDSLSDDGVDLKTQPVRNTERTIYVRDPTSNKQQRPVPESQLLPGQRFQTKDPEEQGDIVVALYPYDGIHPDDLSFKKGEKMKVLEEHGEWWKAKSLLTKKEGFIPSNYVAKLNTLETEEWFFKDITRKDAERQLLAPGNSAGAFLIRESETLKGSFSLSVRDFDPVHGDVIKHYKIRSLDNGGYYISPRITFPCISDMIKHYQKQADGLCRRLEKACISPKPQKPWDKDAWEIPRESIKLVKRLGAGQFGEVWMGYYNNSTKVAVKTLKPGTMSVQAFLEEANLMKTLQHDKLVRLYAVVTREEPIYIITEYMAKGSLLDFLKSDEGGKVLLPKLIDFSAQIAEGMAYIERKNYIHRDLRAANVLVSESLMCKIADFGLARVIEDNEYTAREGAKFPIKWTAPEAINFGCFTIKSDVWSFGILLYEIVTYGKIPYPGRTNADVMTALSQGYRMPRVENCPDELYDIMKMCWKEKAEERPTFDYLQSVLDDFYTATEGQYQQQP
Chain of UniProt P29323 (whole entry, looked up): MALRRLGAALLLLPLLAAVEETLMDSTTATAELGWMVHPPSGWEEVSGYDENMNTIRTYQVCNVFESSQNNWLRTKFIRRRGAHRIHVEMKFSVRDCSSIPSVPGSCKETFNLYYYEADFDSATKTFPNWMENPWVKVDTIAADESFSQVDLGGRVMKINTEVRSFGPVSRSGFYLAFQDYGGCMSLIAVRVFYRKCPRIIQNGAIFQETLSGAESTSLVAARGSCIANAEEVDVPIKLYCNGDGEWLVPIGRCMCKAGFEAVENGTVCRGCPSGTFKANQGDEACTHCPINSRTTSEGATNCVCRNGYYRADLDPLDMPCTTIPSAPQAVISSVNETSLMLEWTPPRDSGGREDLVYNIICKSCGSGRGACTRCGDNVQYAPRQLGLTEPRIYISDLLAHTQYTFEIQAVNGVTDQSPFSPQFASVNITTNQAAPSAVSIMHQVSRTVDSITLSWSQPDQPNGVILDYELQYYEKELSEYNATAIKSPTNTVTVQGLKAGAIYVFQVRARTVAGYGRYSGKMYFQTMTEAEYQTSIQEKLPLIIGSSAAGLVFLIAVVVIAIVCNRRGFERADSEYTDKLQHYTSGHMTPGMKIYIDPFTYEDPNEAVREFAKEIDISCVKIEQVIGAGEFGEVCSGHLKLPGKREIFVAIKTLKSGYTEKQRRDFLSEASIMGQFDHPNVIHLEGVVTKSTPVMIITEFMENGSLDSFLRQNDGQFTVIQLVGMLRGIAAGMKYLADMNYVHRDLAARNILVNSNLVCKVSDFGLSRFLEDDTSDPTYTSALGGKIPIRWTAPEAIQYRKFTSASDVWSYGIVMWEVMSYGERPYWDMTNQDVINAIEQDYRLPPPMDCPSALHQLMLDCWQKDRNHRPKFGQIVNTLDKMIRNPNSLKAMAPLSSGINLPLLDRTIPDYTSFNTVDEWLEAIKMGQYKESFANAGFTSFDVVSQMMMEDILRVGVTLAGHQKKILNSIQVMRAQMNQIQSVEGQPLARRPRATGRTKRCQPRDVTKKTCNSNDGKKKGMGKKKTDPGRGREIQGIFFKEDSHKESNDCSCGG
Chain of UniProt O75676 (whole entry, looked up): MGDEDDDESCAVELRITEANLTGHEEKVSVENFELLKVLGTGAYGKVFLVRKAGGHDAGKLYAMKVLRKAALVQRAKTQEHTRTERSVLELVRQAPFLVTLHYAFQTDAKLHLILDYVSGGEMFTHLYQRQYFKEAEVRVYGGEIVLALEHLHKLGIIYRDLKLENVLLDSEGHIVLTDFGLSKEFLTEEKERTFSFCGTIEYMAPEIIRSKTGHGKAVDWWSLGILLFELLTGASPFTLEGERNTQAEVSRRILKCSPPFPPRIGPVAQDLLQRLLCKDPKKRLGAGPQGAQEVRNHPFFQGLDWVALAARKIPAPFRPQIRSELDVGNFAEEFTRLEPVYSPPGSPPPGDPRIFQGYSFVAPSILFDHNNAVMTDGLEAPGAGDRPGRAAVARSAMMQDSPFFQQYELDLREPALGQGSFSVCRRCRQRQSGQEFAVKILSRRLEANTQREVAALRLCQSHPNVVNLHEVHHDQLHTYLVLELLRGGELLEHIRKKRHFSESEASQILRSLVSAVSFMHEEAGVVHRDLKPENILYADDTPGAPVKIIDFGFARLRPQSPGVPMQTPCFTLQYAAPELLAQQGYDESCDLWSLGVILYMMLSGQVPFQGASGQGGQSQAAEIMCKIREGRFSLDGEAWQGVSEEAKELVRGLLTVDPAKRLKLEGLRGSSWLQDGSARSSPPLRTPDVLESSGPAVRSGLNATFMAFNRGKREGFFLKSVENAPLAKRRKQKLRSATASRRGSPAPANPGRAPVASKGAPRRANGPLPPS

Sample 1
Structure (SMILES): COc1ccc2[nH]c3c4[nH]c5ccc(OC)cc5c4c4c(c3c2c1)C(=O)NC4=O
Tested at: 1 µM
target	assay	conditions	scale	remaining binding [%]
Ephrin type-B receptor 2 (EPHB2, Homo sapiens, UniProt P29323)	competitive binding panel	–	relative to: vehicle	84
Cyclin-G-associated kinase (GAK, Homo sapiens, UniProt O14976)	competitive binding panel	–	relative to: vehicle	0.3
Mitogen-activated protein kinase 14 (MAPK14, Homo sapiens, UniProt Q16539)	competitive binding	p38-alpha	–	87
Serine/threonine-protein kinase PAK 1 (PAK1, Homo sapiens, UniProt Q13153)	competitive binding panel	–	relative to: vehicle	70
TGF-beta receptor type-1 (TGFBR1, Homo sapiens, UniProt P36897)	competitive binding panel	–	relative to: vehicle	100
Tyrosine-protein kinase Lyn (LYN, Homo sapiens, UniProt P07948)	competitive binding panel	–	relative to: vehicle	69
Calcium/calmodulin-dependent protein kinase type 1D (CAMK1D, Homo sapiens, UniProt Q8IU85)	competitive binding panel	–	relative to: vehicle	64
Serine/threonine-protein kinase TAO2 (TAOK2, Homo sapiens, UniProt Q9UL54)	competitive binding panel	–	relative to: vehicle	96
Calcium/calmodulin-dependent protein kinase type II subunit gamma (CAMK2G, Homo sapiens, UniProt Q13555)	competitive binding panel	–	relative to: vehicle	80

Sample 2
Structure (SMILES): COc1ccc2c(c1)O[C@@H](c1ccc(OC)c(OC)c1)C[C@H]2NC(=O)C1(c2ccc3c(c2)OC(F)(F)O3)CC1
Read-out: cell-free assay
Technique: competition with immobilised ligand
Tested at: 1 µM
target	remaining binding [%]
Mitogen-activated protein kinase 9 (MAPK9, Homo sapiens, UniProt P45984)	83
Mitogen-activated protein kinase kinase kinase kinase 4 (MAP4K4, Homo sapiens, UniProt O95819)	100
Ribosomal protein S6 kinase alpha-4, N-terminal kinase domain (RPS6KA4, Homo sapiens, UniProt O75676)	94
Mitogen-activated protein kinase 6 (MAPK6, Homo sapiens, UniProt Q16659)	100
Serine/threonine-protein kinase TNNI3K (TNNI3K, Homo sapiens, UniProt Q59H18)	100
High affinity nerve growth factor receptor (NTRK1, Homo sapiens, UniProt P04629)	100
TGF-beta receptor type-2 (TGFBR2, Homo sapiens, UniProt P37173)	87
Tyrosine-protein kinase JAK2, JH1 (JAK2, Homo sapiens, UniProt O60674)	75

Sample 3
Target: Serine/threonine-protein kinase 10 (STK10, Homo sapiens, UniProt O94804)
Chain of UniProt O94804 (whole entry, looked up): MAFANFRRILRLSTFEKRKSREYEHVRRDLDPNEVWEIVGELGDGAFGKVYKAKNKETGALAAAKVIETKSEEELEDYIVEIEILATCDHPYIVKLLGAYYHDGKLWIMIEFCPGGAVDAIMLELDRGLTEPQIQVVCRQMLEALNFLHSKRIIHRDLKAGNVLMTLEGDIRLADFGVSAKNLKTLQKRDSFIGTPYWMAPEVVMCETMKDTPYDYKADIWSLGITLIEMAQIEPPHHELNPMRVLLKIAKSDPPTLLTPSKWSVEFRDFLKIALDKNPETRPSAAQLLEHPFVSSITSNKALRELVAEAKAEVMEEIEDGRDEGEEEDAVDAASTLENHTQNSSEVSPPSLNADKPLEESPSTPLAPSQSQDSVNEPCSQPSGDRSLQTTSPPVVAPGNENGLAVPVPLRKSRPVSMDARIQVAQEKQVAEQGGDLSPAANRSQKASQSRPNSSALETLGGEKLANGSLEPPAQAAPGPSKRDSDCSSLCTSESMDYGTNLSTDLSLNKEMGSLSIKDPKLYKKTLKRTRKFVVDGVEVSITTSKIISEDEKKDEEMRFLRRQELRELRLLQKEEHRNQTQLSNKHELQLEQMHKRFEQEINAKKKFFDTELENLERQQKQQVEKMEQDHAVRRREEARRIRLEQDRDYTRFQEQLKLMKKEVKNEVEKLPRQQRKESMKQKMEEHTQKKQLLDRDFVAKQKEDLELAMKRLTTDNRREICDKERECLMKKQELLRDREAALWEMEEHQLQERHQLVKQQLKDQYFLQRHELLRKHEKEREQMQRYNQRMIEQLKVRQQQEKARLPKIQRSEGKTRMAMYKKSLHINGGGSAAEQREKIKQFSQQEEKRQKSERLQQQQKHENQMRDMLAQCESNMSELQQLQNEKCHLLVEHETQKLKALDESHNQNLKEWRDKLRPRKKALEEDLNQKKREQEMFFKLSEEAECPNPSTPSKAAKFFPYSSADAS
Read-out: enzyme activity
Action: inhibitor
Tested at: 0.5 µM
Relative to: control
SMILES	remaining activity
N#CC(C#N)=C(N)/C(C#N)=C/c1ccc(O)cc1	92.4%
Cc1ccc(NC(=O)c2ccc(CN3CCN(C)CC3)cc2)cc1Nc1nc(-c2cccnc2)cs1	93.8%
COc1ccc(CNC(=O)Nc2ncc([N+](=O)[O-])s2)cc1	94.3%
COc1ccc(C(=O)Nc2sc3c(c2C(N)=O)CCCC3)cc1OC	93.9%
Nc1ncnc2n[nH]c(Nc3ccc(F)cc3)c12	70.5%
O=C1NC(=O)C(c2cn(CCCn3ccnc3)c3ccccc23)=C1Nc1ccccc1	11.5%
COc1cc2nccc(Oc3ccc(NC(=S)NC(=O)c4ccccc4C)cc3)c2cc1OC	11.9%
CN(C)c1ccc(C=C2C(=O)Nc3ccccc32)cc1	95.4%
OCC(O)CCON=C1C(c2c(O)[nH]c3ccccc23)=Nc2ccccc21 (stereo not shown)	52.1%
Cc1cccc(-c2[nH]c(C(C)(C)C)nc2-c2ccc3c(c2)OCO3)n1	94.5%
O=C(Nc1cccc(Nc2cc(Nc3cccc(C(F)(F)F)c3)ncn2)c1)C1CC1	95.7%
O=C(CCCc1ccc(-c2ccccc2F)cc1)Nc1ccc(O)cc1	95.3%
COc1ccc(OC)c2c(=S)c3ccccc3[nH]c12	93.6%
CCOC(=O)c1c(C)[nH]c(/C=C2\C(=O)Nc3ccccc32)c1C	82.2%
Cn1c2ccccc2c2c3c(c4c5ccccc5n(CCC#N)c4c21)CNC3=O	20.1%

Sample 4
SMILES: CC(C)n1cnc(-c2ccc(F)cc2)c1-c1ncc(C(=O)Nc2ccc(N3CCN(C)CC3)cc2)[nH]1
Technique: Phase 2a trial
Species: idiopathic pulmonary fibrosis patients
assay	conditions	patients with adverse events
measured: blood creatine phosphokinase increased	30 mg once daily, grade 2 maximum intensity	0%
measured: back pain	60 mg once daily, grade 4 maximum intensity	0%
measured: reticulocyte count increased	30 mg once daily, grade 5 maximum intensity	0%
measured: oral herpes	oral, 30 mg once daily, grade 5 maximum intensity	0%
measured: bile acids increased	30 mg once daily, grade 4 maximum intensity	0%
measured: muscular weakness	60 mg once daily, grade 3 maximum intensity	0%
measured: blood bilirubin increased	30 mg once daily, grade 4 maximum intensity	0%
measured: vision blurred	60 mg once daily, grade 1 maximum intensity	0%
